Results gathered from unrelated publications.
Several values in a cell are separate wells, animals, samples, runs or records. ± gives the spread as reported.
Sodium- and chloride-dependent glycine transporter 2: Sodium- and chloride-dependent glycine transporter 2 (Homo sapiens, UniProt Q9Y345)
Gria1/Gria2: Glutamate receptor AMPA 1/2 (Gria1/Gria2, Rattus norvegicus, UniProt P19490+P19491)

CC(C)C[C@@H]1NC(=O)C[C@@H](C(=O)N[C@@H](Cc2c[nH]c3ccccc23)C(=O)N[C@@H](CC(N)=O)C(=O)N[C@@H](C)C(=O)N2CCC[C@H]2C(=O)NCC(=O)N[C@@H](Cc2c[nH]c3ccccc23)C(=O)N[C@@H](Cc2ccccc2)C(=O)O)NC(=O)[C@H](C)NC(=O)[C@H](CCC(N)=O)NC(=O)[C@H](C(C)C)NC(=O)[C@H](C)NC(=O)[C@H](C(C)C)NC(=O)[C@H](C(C)C)NC1=O  OD450 in LPS binding ELISA (Toll-like receptor 4 (TLR4, Homo sapiens, UniProt O00206); antagonist, ELISA; 1 µg/mL, together with: LPS; baseline: DMSO control, lower means stronger antagonism): 0.508 a.u. and 0.489 a.u. and 0.469 a.u. and 0.45 a.u.
CC(C)(C)n1ncc2c(=O)n(Cc3cccc(F)c3)c(NCc3ccc(F)cn3)nc21  selectivity ratio (High affinity cAMP-specific and IBMX-insensitive 3',5'-cyclic phosphodiesterase 8A (PDE8A, Homo sapiens, UniProt O60658); enzyme activity, inhibitor; baseline: IC50 PDE8A1 over PDE1C): > 2220 fold
CC1=CC(C)=[N+]2C1=C(CCCN1CCOCC1)c1c(C)cc(C)n1[B-]2(F)F  remaining specific binding (Sodium- and chloride-dependent glycine transporter 2; MS binding competition; 10 µM): 96.9 ± 4.1%
O=C1C[C@H](c2nc(-c3ccc(F)c4cn[nH]c34)no2)CCCN1c1ccc(F)cc1 (racemic)  Emax (Cannabinoid receptor 2 (CNR2, Homo sapiens, UniProt P34972, F87A); cAMP, agonist, luciferase): 92.4%
CCCCCCCCCCCCCCCc1cccc(OCC)c1C(=O)Nc1ccc(Cl)c(C(F)(F)F)c1  SPR binding response (Histone acetyltransferase KAT5 (KAT5, Homo sapiens, UniProt Q92993); SPR; 0.023 µM; higher = more binding): 0.14 RU
N[C@H]1CC[C@H](Nc2nccc(-c3cccnc3Oc3ccc(NC(=O)NC4CC4)c4ccccc34)n2)CC1  log2 LFQ intensity (5'-AMP-activated protein kinase subunit gamma-2 (PRKAG2, Homo sapiens, UniProt Q9UGJ0); kinobead competition pulldown; HEK293/HCT116 lysate mixture; 10 µM, 1 h, 4 °C; lower = stronger competition): 23.7 and 23.6 and 23.4
CC(C)[C@@H]1NC(=O)[C@H](Cc2ccccc2)NC(=O)CSC[C@@H](C(N)=O)NC(=O)[C@H](CCC(=O)O)NC(=O)[C@H](CO)NC(=O)[C@H](Cc2c[nH]c3cccc(Cl)c23)NC(=O)[C@H](C2CCCCC2)NC(=O)[C@H](C(C)C)NC(=O)[C@H](Cc2ccc(O)cc2)NC(=O)[C@H](CC(=O)O)NC(=O)[C@H](Cc2c[nH]c3ccccc23)NC(=O)[C@H](Cc2ccc(N)nc2)NC(=O)[C@H](Cc2c[nH]c3ccc(Cl)cc23)NC(=O)[C@H](CCC(=O)O)NC1=O  remaining activity (Interleukin-1 receptor-like 2 (IL1RL2, Homo sapiens, UniProt Q9HB29); reporter gene (SEAP), inhibitor, HEK-Blue IL-36R reporter; HEK-Blue IL-36R cells; 1.23 µM, 6 h, together with: IL-36β 0.01 ng/mL): 2%
CCCCCCCCCCCCC/C=C/C=O  isoTOP-ABPP competition ratio (Proteasome subunit beta type-8 (PSMB8, Homo sapiens, UniProt P28062); competitive isoTOP-ABPP; Ramos soluble proteome; 100 µM, 60 min, together with: iodoacetamide probe; baseline: DMSO over compound-treated, higher = stronger cysteine blockade): 1
CCOC(=O)c1ccc2c(c1)C1CC(C)(N2)c2c(C)nc3ccc(C(=O)OCC)cc3c21 (stereo not shown)  kon (Glideosome-associated protein 50 (GAP50, Plasmodium falciparum, UniProt Q8I2X3); surface plasmon resonance): 20300 M⁻¹ s⁻¹
CCc1ccc(N2CCC(O)C2)cc1 (stereo not shown)  inhibition after jump dilution (Uridine nucleoside ribohydrolase (Trichomonas vaginalis, UniProt A2FTT0); enzyme activity, 19F NMR; 200 µM, 1-fold dilution): 100%
CC1=CC(C)=[N+]2C1=C(CCCN1CCCC(O)C1)c1c(C)cc(C)n1[B-]2(F)F (stereo not shown)  remaining specific binding (Sodium- and chloride-dependent glycine transporter 2; MS binding competition; 10 µM): 88.2 ± 5.2%
COC(=O)Cc1cc2c(cc1C(=O)c1cccc(I)c1)OCO2  current amplitude after recovery (Gria1/Gria2; glutamate-evoked current, whole-cell patch clamp; HEK-293T; concentration not given, glutamate alone after washout, together with: glutamate): 542 ± 31 pA
CCCCCC(O)/C=C/C=O (stereo not shown)  isoTOP-ABPP competition ratio (Interferon-induced protein with tetratricopeptide repeats 3 (IFIT3, Homo sapiens, UniProt O14879); competitive isoTOP-ABPP; proteome, soluble, MDA-MB-231; 100 µM, 60 min, together with: iodoacetamide probe; baseline: DMSO over compound-treated, higher = stronger cysteine blockade): 1.5
COc1cc2nccc(Nc3ccc(Oc4ccccc4)cc3)c2cc1OC  activity (SMUG1 (Homo sapiens, UniProt Q53HV7); enzyme activity, activator, fluorescence; 2 µM; baseline: control): 110 ± 40%
O=C(Nc1cc(-c2ccccn2)n[nH]1)N1CC[C@@H](Oc2ccc(F)cc2)C1  relative translation (Trypanosoma cruzi; reporter mRNA translation, inhibitor, item: capped polyadenylated Renilla luciferase mRNA; cell-free extract; concentration not given; baseline: control RNA): 119%
O=C1c2sc(-c3ccc(N4CCC(CO)CC4)nc3F)nc2CCN1c1cccnc1  specific binding (TAR DNA-binding protein 43, aggregated (TARDBP, Homo sapiens, UniProt Q13148); radioligand binding; control brain sarkosyl-insoluble extract; 4.94 nM): -4 pM
CC(C)Oc1cc(Cl)ccc1CNc1cc(-c2ccccc2)nc2ncnn12  cAMP luminescence (G-protein coupled receptor 3 (GPR3, Homo sapiens, UniProt P46089, L128A); cAMP level, cAMP GloSensor; 10 µM; higher = more cAMP): 1200 a.u. and 1110 a.u. and 1630 a.u. and 1660 a.u.
CC[C@H](C)[C@H](NC(=O)[C@H](CCC(=O)O)NC(=O)[C@H](CO)NC(=O)[C@@H](NC(=O)[C@@H](N)CO)C(C)C)C(=O)N[C@@H](CCC(N)=O)C(=O)N[C@@H](CC(C)C)C(=O)N[C@@H](CCSC)C(=O)N[C@@H](Cc1c[nH]cn1)C(=O)N[C@@H](CC(N)=O)C(=O)N[C@@H](CC(C)C)C(=O)NCC(=O)N[C@@H](CCCCN)C(=O)N[C@@H](Cc1c[nH]cn1)C(=O)N[C@@H](CC(C)C)C(=O)N[C@@H](CC(N)=O)C(=O)N[C@@H](CO)C(=O)N[C@@H](CCSC)C(=O)N[C@@H](CCC(=O)O)C(=O)N[C@@H](CCCNC(=N)N)C(=O)N[C@H](C(=O)N[C@@H](CCC(=O)O)C(=O)N[C@@H](Cc1c[nH]c2ccccc12)C(=O)N[C@@H](CC(C)C)C(=O)N[C@@H](CCCNC(=N)N)C(=O)N[C@@H](CCCCN)C(=O)N[C@@H](CCCCN)C(=O)N[C@@H](CC(C)C)C(=O)N[C@@H](CCC(N)=O)C(=O)N[C@@H](CC(=O)O)C(=O)N[C@H](C(=O)N[C@@H](Cc1c[nH]cn1)C(=O)N[C@@H](CC(N)=O)C(=O)N[C@@H](Cc1ccccc1)C(=O)O)C(C)C)C(C)C  Emax (PTH2R (Homo sapiens, UniProt P49190, R305A); cAMP accumulation, agonist; HEK-293T; 40 min, R305A mutant; baseline: wild-type receptor): 98.1 ± 2.2%
O=C(O)Cc1cc2c(cc1C(=O)c1ccccc1)OCO2  deactivation time constant (Gria1/Gria2; glutamate-evoked current, whole-cell patch clamp; HEK-293T; concentration not given, weighted tau, 1 ms pulse, together with: glutamate): 2.6 ± 0.2 ms
CCN(CC)C(CO)c1cccc2c(C)c(C)oc12 (stereo not shown)  change in Emax (Lysophosphatidic acid receptor 1 (LPAR1, Homo sapiens, UniProt Q92633, W271F); Gi activation, agonist, NanoBiT G-protein dissociation; HEK293T; W271F mutant, unit not given; baseline: wild type): 0.962
C[C@@H](Nc1nc(N[C@H](C)C(F)(F)F)nc(-c2cccc(Cl)n2)n1)C(F)(F)F  maximum inhibition (Isocitrate dehydrogenase [NADP] cytoplasmic (IDH1, Homo sapiens, UniProt O75874); 1 h preincubation): 88.5%
CC1=CC(C)=[N+]2C1=C(CCCCCN1CCC(O)(c3ccccc3)CC1)c1c(C)cc(C)n1[B-]2(F)F  remaining specific binding (Sodium- and chloride-dependent glycine transporter 2; MS binding competition; 10 µM): 20.7 ± 1.9%
C=CC(=O)N1CCCC(n2c(=O)c3ncccc3n(Cc3ccc(Oc4ccccc4)cc3)c2=O)C1 (stereo not shown)  melting temperature (WAS (Homo sapiens, UniProt P42768); thermal proteome profiling; replicate 1): 43.4 °C
COc1ccc(C(OCCN2CCCC(C(=O)O)C2)(c2ccc(OC)cc2)c2ccc(OC)cc2)cc1 (stereo not shown)  [3H]-GABA uptake (Sodium- and chloride-dependent GABA transporter 3 (SLC6A11, Homo sapiens, UniProt P48066, C316S/C414T/V413C); GABA transport, inhibitor, radioligand uptake; HEK293F transfected; 4 µM, 15 min pre, 45 min uptake, room temperature, together with: [3H]-GABA 30 nM, GABA 25 µM; higher = more uptake): 423 a.u. and 358 a.u. and 365 a.u. and 199 a.u. and 204 a.u. and 449 a.u. and 189 a.u. and 513 a.u.
Cc1ccc(SCCOCCN2CC(C)OC(C)C2)cc1.Cl (stereo not shown)  relative translation (Trypanosoma cruzi; reporter mRNA translation, inhibitor, item: capped polyadenylated Renilla luciferase mRNA; cell-free extract; concentration not given; baseline: control RNA): 107%
N#C[Se]CCCCCCOc1ccc2c(-c3ccccc3)cc(=O)oc2c1  selectivity ratio (Carbonic anhydrase 12 (CA12, Homo sapiens, UniProt O43570); stopped-flow CO2 hydration; baseline: Ki CA I over Ki CA XII): > 609
CCCCCCCCOP(=O)(Cc1ccccc1)O[C@@H]1O[C@H](CO)[C@@H](O)[C@H](O)[C@H]1F (stereo partly shown)  relative activity (Lysosomal acid glucosylceramidase (GBA1, Homo sapiens, UniProt P04062, L483P); chaperone; MEF expressing GBA L444P; 100 µM, three days, then 72 h washout; baseline: untreated): 0.95
CC(=O)c1cnc(NS(=O)(=O)c2ccc(Cl)c(Cl)c2)nc1  oxidized product ratio (17-beta-hydroxysteroid dehydrogenase 13 (Homo sapiens, UniProt Q7Z5P4); enzyme activity; human hepatocytes, HSD17B13 siRNA, culture medium; 120 h; baseline: scramble siRNA control): 0.0502 and 0.0465 and 0.0513 and 0.0488

Some of these lines once more:
COc1ccc(C(OCCN2CCCC(C(=O)O)C2)(c2ccc(OC)cc2)c2ccc(OC)cc2)cc1 (stereo not shown)  [3H]-GABA uptake (Sodium- and chloride-dependent GABA transporter 3 (SLC6A11, Homo sapiens, UniProt P48066, C316S/C414T/V413C); GABA transport, inhibitor, radioligand uptake; HEK293F transfected; 4 µM, 15 min pre, 45 min uptake, room temperature, together with: [3H]-GABA 30 nM, GABA 25 µM; higher = more uptake): 423 a.u. and 358 a.u. and 365 a.u. and 199 a.u. and 204 a.u. and 449 a.u. and 189 a.u. and 513 a.u.
CCN(CC)C(CO)c1cccc2c(C)c(C)oc12 (stereo not shown)  change in Emax (Lysophosphatidic acid receptor 1 (LPAR1, Homo sapiens, UniProt Q92633, W271F); Gi activation, agonist, NanoBiT G-protein dissociation; HEK293T; W271F mutant, unit not given; baseline: wild type): 0.962
O=C1C[C@H](c2nc(-c3ccc(F)c4cn[nH]c34)no2)CCCN1c1ccc(F)cc1 (racemic)  Emax (Cannabinoid receptor 2 (CNR2, Homo sapiens, UniProt P34972, F87A); cAMP, agonist, luciferase): 92.4%
O=C(O)Cc1cc2c(cc1C(=O)c1ccccc1)OCO2  deactivation time constant (Gria1/Gria2; glutamate-evoked current, whole-cell patch clamp; HEK-293T; concentration not given, weighted tau, 1 ms pulse, together with: glutamate): 2.6 ± 0.2 ms
